Assay results gathered from unrelated publications.
Numbered parts are unrelated; each lists some results of a single study. Values joined by “and” are separate records of one study, mostly repeats; a detail may differ.
UniProt P54760, sequence (whole entry, looked up): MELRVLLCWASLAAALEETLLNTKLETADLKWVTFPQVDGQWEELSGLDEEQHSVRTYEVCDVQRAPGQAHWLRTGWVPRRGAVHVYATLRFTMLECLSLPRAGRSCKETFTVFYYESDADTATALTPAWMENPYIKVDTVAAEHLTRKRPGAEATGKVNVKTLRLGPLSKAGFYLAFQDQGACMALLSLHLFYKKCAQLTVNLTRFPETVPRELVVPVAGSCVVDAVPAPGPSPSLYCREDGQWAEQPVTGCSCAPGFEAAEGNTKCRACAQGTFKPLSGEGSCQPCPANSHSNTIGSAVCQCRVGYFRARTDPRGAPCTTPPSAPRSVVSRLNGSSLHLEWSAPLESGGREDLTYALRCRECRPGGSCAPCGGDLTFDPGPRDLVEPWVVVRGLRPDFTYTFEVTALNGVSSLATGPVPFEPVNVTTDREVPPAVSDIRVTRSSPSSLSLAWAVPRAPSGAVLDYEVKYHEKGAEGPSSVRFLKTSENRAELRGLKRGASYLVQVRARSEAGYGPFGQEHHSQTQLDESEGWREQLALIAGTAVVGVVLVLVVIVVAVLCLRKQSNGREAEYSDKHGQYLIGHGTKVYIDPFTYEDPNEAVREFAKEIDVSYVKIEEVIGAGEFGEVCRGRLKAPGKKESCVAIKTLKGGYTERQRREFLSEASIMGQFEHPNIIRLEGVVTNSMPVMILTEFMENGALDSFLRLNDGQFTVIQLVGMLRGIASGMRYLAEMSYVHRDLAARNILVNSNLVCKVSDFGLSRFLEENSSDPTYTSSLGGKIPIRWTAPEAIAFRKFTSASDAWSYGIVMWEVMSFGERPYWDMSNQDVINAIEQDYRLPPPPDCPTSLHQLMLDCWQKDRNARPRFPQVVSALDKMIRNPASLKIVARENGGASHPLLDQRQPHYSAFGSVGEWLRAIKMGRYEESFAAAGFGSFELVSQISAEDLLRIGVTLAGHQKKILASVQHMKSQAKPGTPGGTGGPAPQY
UniProt O43293, sequence (whole entry, looked up): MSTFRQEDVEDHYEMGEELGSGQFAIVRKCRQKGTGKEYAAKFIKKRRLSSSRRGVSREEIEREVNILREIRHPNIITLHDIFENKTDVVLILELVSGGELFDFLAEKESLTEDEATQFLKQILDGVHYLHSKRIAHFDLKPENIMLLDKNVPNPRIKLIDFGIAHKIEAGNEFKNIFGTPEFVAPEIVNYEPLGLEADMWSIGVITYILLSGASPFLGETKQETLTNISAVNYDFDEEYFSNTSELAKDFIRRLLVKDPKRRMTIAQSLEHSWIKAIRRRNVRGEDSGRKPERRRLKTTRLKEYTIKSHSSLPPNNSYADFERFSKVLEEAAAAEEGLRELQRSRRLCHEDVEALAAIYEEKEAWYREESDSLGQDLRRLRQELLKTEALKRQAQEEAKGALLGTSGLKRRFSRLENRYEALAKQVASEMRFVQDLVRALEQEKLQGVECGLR

Set 1
SMILES: C[C@H]1CC[C@H](n2c3cnccc3c3cnc(Nc4ccc5c(n4)CCN(C(=O)CO)C5)nc32)CC1
Concentration: 1 µM
target | receptor occupancy [%]
ABL1 (Homo sapiens, UniProt P00519) | -11
BRAF (Homo sapiens, UniProt P15056, V600E) | -11.3
EPHB4 (Homo sapiens, UniProt P54760) | -3.37
TIE1 (Homo sapiens, UniProt P35590) | -7.36
FLT3 (Homo sapiens, UniProt P36888) | 8.72
SRC (Homo sapiens, UniProt P12931) | 0.768

Set 2
Structure (SMILES): Cc1c[nH]c2nccc(Oc3c(F)cc(Nc4cc(Cl)nc(N)n4)cc3F)c12
Observed: cell-free assay
Method: competition with immobilised ligand
Concentration: 0.1 µM
target | remaining binding [%]
SGK3 (Homo sapiens, UniProt Q96BR1) | 88
SIK3 (Homo sapiens, UniProt Q9Y2K2) | 100
WNK1 (Homo sapiens, UniProt Q9H4A3) | 90
MAP3K14 (Homo sapiens, UniProt Q99558) | 92
Tyrosine-protein kinase ABL1, non-phosphorylated (ABL1, Homo sapiens, UniProt P00519, Q252H) | 85
DDR1 (Homo sapiens, UniProt Q08345) | 100
PIK3CA (Homo sapiens, UniProt P42336, E542K) | 85
MAPK10 (Homo sapiens, UniProt P53779) | 81
ACVR2A (Homo sapiens, UniProt P27037) | 94
FGFR4 (Homo sapiens, UniProt P22455) | 100
IKBKB (Homo sapiens, UniProt O14920) | 69
BUB1 (Homo sapiens, UniProt O43683) | 75
PAK6 (Homo sapiens, UniProt Q9NQU5) | 82
FLT3 (Homo sapiens, UniProt P36888) | 76
DCLK2 (Homo sapiens, UniProt Q8N568) | 100
GAK (Homo sapiens, UniProt O14976) | 100
MAPK11 (Homo sapiens, UniProt Q15759) | 97
DAPK3 (Homo sapiens, UniProt O43293) | 97
YES1 (Homo sapiens, UniProt P07947) | 96
INSRR (Homo sapiens, UniProt P14616) | 91
KIT (Homo sapiens, UniProt P10721, L576P) | 72
Insulin receptor (INSR, Homo sapiens, UniProt P06213) | 80
PIK3C2G (Homo sapiens, UniProt O75747) | 100
ERBB4 (Homo sapiens, UniProt Q15303) | 100
AXL (Homo sapiens, UniProt P30530) | 93

Set 3
SMILES: c1ccc2c(-c3ccncc3)c[nH]c2c1
Observed: enzyme activity
Mode: inhibitor
Concentration: 0.5 µM
Reference: control
target | remaining activity [%]
HIPK4 (Homo sapiens, UniProt Q8NE63) | 93.8
RPS6KA5 (Homo sapiens, UniProt O75582) | 96.7
PHKG1 (Homo sapiens, UniProt Q16816) | 90.3
CAMK2B (Homo sapiens, UniProt Q13554) | 90.5
PDPK1 (Homo sapiens, UniProt O15530) | 96.6
Cyclin-dependent kinase 6, with cyclin D3 (CDK6, Homo sapiens, UniProt Q00534) | 101
EPHB4 (Homo sapiens, UniProt P54760) | 89.7
HIPK2 (Homo sapiens, UniProt Q9H2X6) | 94.1
STK17A (Homo sapiens, UniProt Q9UEE5) | 93
SRMS (Homo sapiens, UniProt Q9H3Y6) | 107
RPS6KA6 (Homo sapiens, UniProt Q9UK32) | 112
EPHB1 (Homo sapiens, UniProt P54762) | 108
BLK (Homo sapiens, UniProt P51451) | 99.6
TSSK2 (Homo sapiens, UniProt Q96PF2) | 96.9
MAPKAPK3 (Homo sapiens, UniProt Q16644) | 97.8
Cyclin-dependent kinase 4, with cyclin D3 (CDK4, Homo sapiens, UniProt P11802) | 102
WNK3 (Homo sapiens, UniProt Q9BYP7) | 100
EPHA4 (Homo sapiens, UniProt P54764) | 108
STK16 (Homo sapiens, UniProt O75716) | 110
DYRK3 (Homo sapiens, UniProt O43781) | 101
ABL1 (Homo sapiens, UniProt P00519) | 98.8
AXL (Homo sapiens, UniProt P30530) | 99.8
Cyclin-dependent kinase 1, with cyclin B (CDK1, Homo sapiens, UniProt P06493) | 96
PRKACG (Homo sapiens, UniProt P22612) | 107
MAP4K4 (Homo sapiens, UniProt O95819) | 54.4

Set 4
Target: DNA polymerase theta, ATPase domain (POLQ, Homo sapiens, UniProt O75417)
UniProt O75417, sequence (whole entry, unmodified, looked up): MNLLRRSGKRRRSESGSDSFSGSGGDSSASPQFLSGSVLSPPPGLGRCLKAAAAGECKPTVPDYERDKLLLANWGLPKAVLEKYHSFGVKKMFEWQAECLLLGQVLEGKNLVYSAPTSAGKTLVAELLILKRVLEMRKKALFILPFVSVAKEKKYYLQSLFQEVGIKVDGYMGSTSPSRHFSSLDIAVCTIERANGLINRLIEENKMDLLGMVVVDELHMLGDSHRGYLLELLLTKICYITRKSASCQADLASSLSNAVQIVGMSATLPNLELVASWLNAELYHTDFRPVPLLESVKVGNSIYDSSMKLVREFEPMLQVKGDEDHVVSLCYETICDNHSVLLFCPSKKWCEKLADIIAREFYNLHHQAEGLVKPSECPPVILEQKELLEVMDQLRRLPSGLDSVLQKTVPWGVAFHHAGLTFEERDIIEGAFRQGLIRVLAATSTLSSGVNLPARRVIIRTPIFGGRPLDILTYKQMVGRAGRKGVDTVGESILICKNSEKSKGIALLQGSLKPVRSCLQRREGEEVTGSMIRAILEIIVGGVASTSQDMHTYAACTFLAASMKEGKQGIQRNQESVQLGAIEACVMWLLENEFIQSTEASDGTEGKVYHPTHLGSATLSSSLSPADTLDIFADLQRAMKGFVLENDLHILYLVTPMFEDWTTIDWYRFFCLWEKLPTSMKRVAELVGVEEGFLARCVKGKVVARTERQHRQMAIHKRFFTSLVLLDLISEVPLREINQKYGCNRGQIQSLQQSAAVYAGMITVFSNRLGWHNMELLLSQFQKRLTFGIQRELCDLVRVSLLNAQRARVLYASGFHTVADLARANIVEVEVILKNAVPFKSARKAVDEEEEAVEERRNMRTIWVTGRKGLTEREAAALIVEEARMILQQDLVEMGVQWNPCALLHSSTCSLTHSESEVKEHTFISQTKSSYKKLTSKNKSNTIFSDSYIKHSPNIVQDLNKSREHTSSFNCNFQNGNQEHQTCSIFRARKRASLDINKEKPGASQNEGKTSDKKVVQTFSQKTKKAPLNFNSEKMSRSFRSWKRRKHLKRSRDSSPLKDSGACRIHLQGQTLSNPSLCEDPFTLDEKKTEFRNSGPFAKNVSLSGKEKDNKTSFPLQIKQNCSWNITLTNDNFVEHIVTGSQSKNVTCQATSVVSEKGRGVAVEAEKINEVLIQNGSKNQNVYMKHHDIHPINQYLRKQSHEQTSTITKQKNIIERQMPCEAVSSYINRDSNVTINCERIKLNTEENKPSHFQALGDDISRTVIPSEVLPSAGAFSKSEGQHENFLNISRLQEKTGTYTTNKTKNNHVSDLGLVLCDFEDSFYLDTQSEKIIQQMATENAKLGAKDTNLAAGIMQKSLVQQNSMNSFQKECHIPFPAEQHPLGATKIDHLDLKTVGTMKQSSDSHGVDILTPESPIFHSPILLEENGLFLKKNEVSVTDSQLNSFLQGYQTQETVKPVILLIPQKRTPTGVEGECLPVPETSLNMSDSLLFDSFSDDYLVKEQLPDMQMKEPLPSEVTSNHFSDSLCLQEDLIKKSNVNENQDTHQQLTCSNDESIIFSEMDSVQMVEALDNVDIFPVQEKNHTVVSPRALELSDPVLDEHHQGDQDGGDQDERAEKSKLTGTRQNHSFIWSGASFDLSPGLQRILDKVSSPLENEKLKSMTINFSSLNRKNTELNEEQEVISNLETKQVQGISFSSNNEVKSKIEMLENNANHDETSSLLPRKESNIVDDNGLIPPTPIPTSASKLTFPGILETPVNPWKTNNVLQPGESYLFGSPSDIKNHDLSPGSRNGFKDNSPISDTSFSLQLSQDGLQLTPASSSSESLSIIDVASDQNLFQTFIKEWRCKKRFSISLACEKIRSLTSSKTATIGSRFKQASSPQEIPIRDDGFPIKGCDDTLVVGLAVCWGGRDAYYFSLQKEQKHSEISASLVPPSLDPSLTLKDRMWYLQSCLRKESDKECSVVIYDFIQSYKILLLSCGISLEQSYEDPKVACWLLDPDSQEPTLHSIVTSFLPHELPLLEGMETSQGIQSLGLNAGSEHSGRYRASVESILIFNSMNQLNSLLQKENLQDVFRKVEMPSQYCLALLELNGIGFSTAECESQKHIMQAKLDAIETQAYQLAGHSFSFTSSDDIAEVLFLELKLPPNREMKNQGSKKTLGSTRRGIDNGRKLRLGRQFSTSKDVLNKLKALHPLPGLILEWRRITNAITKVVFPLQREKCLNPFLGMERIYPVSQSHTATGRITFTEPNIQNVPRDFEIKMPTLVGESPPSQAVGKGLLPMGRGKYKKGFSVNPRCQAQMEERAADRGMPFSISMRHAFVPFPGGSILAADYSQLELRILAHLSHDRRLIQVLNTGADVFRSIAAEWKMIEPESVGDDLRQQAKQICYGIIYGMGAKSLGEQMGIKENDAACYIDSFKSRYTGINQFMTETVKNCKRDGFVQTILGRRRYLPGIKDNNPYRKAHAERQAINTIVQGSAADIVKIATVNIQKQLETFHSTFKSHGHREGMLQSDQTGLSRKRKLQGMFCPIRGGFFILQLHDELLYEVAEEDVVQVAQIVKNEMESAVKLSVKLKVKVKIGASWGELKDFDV
Observed: enzyme activity
Mode: inhibitor
Concentration: 77 µM
Reference: untreated
Compound | remaining activity
COc1cc(SC)ccc1C(=O)N1CCC(Cc2ccccc2)CC1 | 108%
COc1c2c(nc3ccccc13)OC(C(C)(O)CO)C2 (centres unmarked) | 102%
CCCN(CCC)CCc1cccc2c1CC(=O)N2 | 96.3%
CCCCC[C@H](O)/C=C/[C@H]1[C@H](O)CC(=O)[C@@H]1CCCCCCC(=O)O | 101% and 102%
Nc1nc(=S)c2ncn([C@@H]3O[C@H](CO)[C@@H](O)[C@H]3O)c2[nH]1 | 101%
CC[N+](C)(CC)CCOC(=O)C1c2ccccc2Oc2ccccc21 | 105%
Nc1nc(Nc2ccc(S(N)(=O)=O)cc2)nn1C(=S)Nc1c(F)cccc1F | 108%
N[C@@H](CC(=O)N1CCn2c(nnc2C(F)(F)F)C1)Cc1cc(F)c(F)cc1F | 101%
Cn1c(=O)n(C(C)(C)C#N)c2c3cc(-c4cnc5ccccc5c4)ccc3ncc21 | 102% and 104% and 105%

Excerpt of the above (set 3):
target | remaining activity [%]
RPS6KA6 (Homo sapiens, UniProt Q9UK32) | 112
Cyclin-dependent kinase 1, with cyclin B (CDK1, Homo sapiens, UniProt P06493) | 96
SRMS (Homo sapiens, UniProt Q9H3Y6) | 107
TSSK2 (Homo sapiens, UniProt Q96PF2) | 96.9
ABL1 (Homo sapiens, UniProt P00519) | 98.8
STK17A (Homo sapiens, UniProt Q9UEE5) | 93
